Published values of several laboratories.
Compare with care: the assays were run in different laboratories. Numbers after ± are the reported error.
Technique: steady-state kinetics
B1: LYPLA2 (Homo sapiens, UniProt O95372); chain MCGNTMSVPLLTDAATVSGAERETAAVIFLHGLGDTGHSWADALSTIRLPHVKYICPHAPRIPVTLNMKMVMPSWFDLMGLSPDAPEDEAGIKKAAENIKALIEHEMKNGIPANRIVLGGFSQGGALSLYTALTCPHPLAGIVALSCWLPLHRAFPQAANGSAKDLAILQCHGELDPMVPVRFGALTAEKLRSVVTPARVQFKTYPGVMHSSCPQEMAAVKEFLEKLLPPV
B2: protein (Enterobacter lignolyticus, UniProt E3G9I4); chain MSQVQSGILPEHCRAAIWIEANVKGDVNALRECSKVFADKLAGFEAQFPDAHLGAVVAFGHDTWRALSGGVGAEELKDFTPYGKGLAPATQYDVLIHILSLRHDVNFSVAQAAMAAFGDAVEVKEEIHGFRWVEERDLSGFVDGTENPAGEETRREVAVIKDGVDAGGSYVFVQRWEHNLKQLNRMSVHDQEMMIGRTKVANEEIDGDERPETSHLTRVDLKENGKGLKIVRQSLPYGTASGTHGLYFCAYCARLYNIEQQLLSMFGDTDGKRDAMLRFTKPVTGGYYFAPSLDKLLAL
B3: enzyme (UniProt A0A2T5C445); chain MKSKQLNTDLFKVQAKQQIRLKNYDPASCNGFANRKEAEHQLKQDIKELADLQYQLYAENKRSVLIVFQAMDAAGKDGSIRHVFSGLNPQGCKVYSFKSPSANELDHDYLWRHYNKLPPRGEIGIFNRSHYENVLITRVHPEFLLNENLPDVHATNDITTEFWERRYRQIRDFEQTLTENGTTIIKFFLHLSKDEQKKRFMERIRKPAKNWKFSSADIRERQYWDDYQHAYEQAMRATSTEEAPWYIIPADNKWFTHVAIGNIIVETLQQMNIQMPEISSEEKDALKKAKKKLQNE
B4: enzyme (Mortierella alpina, UniProt U5Y6A8); chain MAPPHVVDEQVRRRIVVEDEIQSKKQFERNYVPMDFTIKEIRDAIPAHLFIRDTTKSILHVVKDLVTIAIVFYCATFIETLPSLALRVPAWITYWIIQGTVMVGPWILAHECGHGAFSDSKTINTIFGWVLHSALLVPYQAWAMSHSKHHKGTGSMSKDVVFIPATRSYKGLPPLEKPAAEEEVLEQEHHHHEESIFAETPIYTLGALFFVLTLGWPLYLIMNFSGHEAPHWVNHFQTVAPLYEPHQRKNIFYSNCGIVAMGSILTYLSMVFSPLTVFMYYGIPYLGVNAWIVCITYLQHTDPKVPHFRDNEWNFQRGAACTIDRSFGTIVNHLHHHIGDSHQCHHMFSQMPFYNAVEATKHLKAKLGKYYIFDDTPIAKALYRNWRECKFVEDEGDVVFYKH
B5: iodotyrosine deiodinase (Haliscomenobacter hydrossis, UniProt F4KU78); chain MKQKPAFIPYAGAQFEPEEMLSKSAEYYQFMDHRRTVREFSNRAIPLEVIENIVMTASTAPSGAHKQPWTFVVVSDPQIKAKIRQAAEKEEFESYNGRMSNEWLEDLQPFGTDWHKPFLEIAPYLIVVFRKAYDVLPDGTQRKNYYVQESVGIACGFLLAAIHQAGLVALTHTPSPMNFLQKILQRPENERPFLLVPVGYPAEGAMVPDLQRKDKAAVMVVY
B6: PUT1 del N-terminal 18 (Saccharomyces cerevisiae, UniProt P09368); chain CFPLIKRSYVSKTPTHSNTAANLMVETPAANANGNSVMAPPNSINFLQTLPKKELFQLGFIGIATLNSFFLNTIIKLFPYIPIPVIKFFVSSLYCGGENFKEVIECGKRLQKRGISNMMLSLTIENSEGTKSLSSTPVDQIVKETISSVHNILLPNIIGQLESKPINDIAPGYIALKPSALVDNPHEVLYNFSNPAYKAQRDQLIENCSKITKEIFELNQSLLKKYPERKAPFMVSTIDAEKYDLQENGVYELQRILFQKFNPTSSKLISCVGTWQLYLRDSGDHILHELKLAQENGYKLGLKLVRGAYIHSEKNRNQIIFGDKTGTDENYDRIITQVVNDLIINGEDSYFGHLVVASHNYQSQMLVTNLLKSTQDNSYAKSNIVLGQLLGMADNVTYDLITNHGAKNIIKYVPWGPPLETKDYLLRRLQENGDAVRSDNGWPLIKAIAKSIPKRVGL
B7: UGT1A9 (Homo sapiens, UniProt O60656); chain GKLLVVPMDGSHWFTMRSVVEKLILRGHEVVVVMPEVSWQLGRSLNCTVKTYSTSYTLEDLDREFKAFAHAQWKAQVRSIYSLLMGSYNDIFDLFFSNCRSLFKDKKLVEYLKESSFDAVFLDPFDNCGLIVAKYFSLPSVVFARGILCHYLEEGAQCPAPLSYVPRILLGFSDAMTFKERVRNHIMHLEEHLLCHRFFKNALEIASEILQTPVTEYDLYSHTSIWLLRTDFVLDYPKPVMPNMIFIGGINCHQGKPLPMEFEAYINASGEHGIVVFSLGSMVSEIPEKKAMAIADALGKIPQTVLWRYTGTRPSNLANNTILVKWLPQNDLLGHPMTRAFITHAGSHGVYESICNGVPMVMMPLFGDQMDNAKRMETKGAGVTLNVLEMTSEDLENALKAVINDKSYKENIMRLSSLHKDRPVEPLDLAVFWVEFVMRHKGAPHLRPAAHDLTWYQYHSLDVIGFLLAVVLTVAFITFKCCAYGYRKCLGKKGRVKKAHKSKTH
B8: protein (Trypanosoma brucei, UniProt Q382C3); chain MKRSVSKVWLNEDTPNDPYPLYAPSPLPPKRPGTIRVWVDGCFDMLHFGHANALRQARSMGDELFVGCHTDEEIIRHKGPPSMRQEERYEALRACKWVDAVIEGYPYVTRVEDMKRFEVDFVVHGDDISVDLNGRNSYQAIIDAGMFKAVRRTECISTTDLVGRMLLCVPSELLSDADKKLLDSEVARKRGPHYLTTSRKIAQFSNKLAPPVGATVVYVDGAFDLFHAGHIRFLQKARALGDYLIVGIHDDQLVRESKGEHFPIMSLNERALGVLSCRYVDDVVFGAPRGVTQEMIKILDIKIVACGTSSETRNCKGAFDVYEVPKSLNLFKVVESGSDLSTDMIVERVVKNHVVLLERQFLKHMKDSEAELRKPDVYRNVREV
B9: Tcur_2987 W263F/W376F (Thermomonospora curvata, UniProt D1A807); chain ACSEERAAGARPSATQTTGTATEPFHGPHQAGIATPPQAHAVFLGLDLRKGTGRKELGRLMRLLTDDARRLTQGRPALADPEPDLAPLPSRLTFTFGFGPGLFKAAGLEKQRPEGLRPLPPFKVDRLEDRWSGGDLLVQICCDDPITLAHALRMTVKDARAFTRVRWVQRGFRRSPGVQSSGATQRNLMGQLDGTVNPVPGTADFDQAVWVQDGPEWLRGGTTLVLRRIRMELEKFDEADPAGKEFAVGRRLTSGAPLTGRHEHDEPDFDAVDSAGFPVIAENAHIRLAHVDSPRLRMLRRPYNYDEGLTADGRSDAGLLFAAYQADIDRQFIPVQRRLDEGGDLLNLFTTPIGSAVFAIPPGCDENGWIGQGLLG
UniProt P07914, sequence (whole entry, looked up): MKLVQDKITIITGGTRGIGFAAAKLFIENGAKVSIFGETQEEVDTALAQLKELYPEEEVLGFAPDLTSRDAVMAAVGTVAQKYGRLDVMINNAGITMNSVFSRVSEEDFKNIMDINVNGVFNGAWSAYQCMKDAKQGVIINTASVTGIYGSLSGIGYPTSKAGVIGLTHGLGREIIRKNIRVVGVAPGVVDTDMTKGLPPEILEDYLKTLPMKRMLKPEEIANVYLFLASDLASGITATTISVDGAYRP

| Molecule | substrate | setting | endpoint | result |
| --- | --- | --- | --- | --- |
| B1 (LYPLA2) | CN(C)c1ccc(/N=N/c2ccc(C(=O)NCCCn3cc(CCCCCCCCCCCCCCCC(=O)OC[C@H](NC(=O)c4cc5ccc(O)cc5oc4=O)C(=O)N4CCOCC4)nn3)cc2)cc1 | pH 7.4, 37 °C | kcat | 0.044 ± 0.003 s⁻¹ |
| B2 (protein) | CCn1c(=NN=c2sc3cc(S(=O)(=O)O)ccc3n2CC)sc2cc(S(=O)(=O)O)ccc21 | pH 3.5, 25 °C, added: H2O2 | kcat | 3540 ± 10 s⁻¹ |
| B3 (enzyme) | Nc1nc2c(ncn2[C@@H]2O[C@H](COP(=O)(O)O)[C@@H](O)[C@H]2O)c(=O)[nH]1 | pH 8, 30 °C | kcat | 49 ± 18 s⁻¹ |
| AphC (Rhodococcus jostii, UniProt Q0S9X1) | CCCc1ccc(O)c(O)c1 | pH 8, 25 °C, apparent, added: O2 | kcat | 0.205 s⁻¹ |
| B4 (enzyme) | CCCCC/C=C\C/C=C\CCCCCCCC(=O)SCCNC(=O)CCNC(=O)[C@H](O)C(C)(C)COP(=O)(O)OP(=O)(O)OC[C@H]1O[C@@H](n2cnc3c(N)ncnc32)[C@H](O)[C@@H]1OP(=O)(O)O | pH 7.5, 28 °C | kcat | 0.187 ± 0.01 s⁻¹ |
| B5 (iodotyrosine deiodinase) | Cc1cc(C[C@H](N)C(=O)O)cc(I)c1O | pH 7.4, 25 °C | kcat | 0.72 ± 0.1 s⁻¹ |
| B6 (PUT1 del N-terminal 18) | COC1=C(OC)C(=O)C(CC=C(C)C)=C(C)C1=O | pH 8, 25 °C, ping-pong, added: proline 300 mM, electron acceptor | kcat | 9.6 ± 0.5 s⁻¹ |
| B7 (UGT1A9) | O=C1[C@H](CC[C@H](O)c2ccc(F)cc2)[C@@H](c2ccc(O)cc2)N1c1ccc(F)cc1 | pH 7.4, 37 °C | Km | 268 µM |
| B8 (protein) | NCCOP(=O)(O)O | pH 7.5, added: CTP 0.1 mM | kcat | 1.15 s⁻¹ |
| BaiA1 (Clostridium scindens, UniProt P07914) | NC(=O)c1ccc[n+]([C@@H]2O[C@H](COP(=O)(O)OP(=O)(O)OC[C@H]3O[C@@H](n4cnc5c(N)ncnc54)[C@H](O)[C@@H]3O)[C@@H](O)[C@H]2O)c1 | pH 8.7, 37 °C, cofactor varied, added: glycocholic acid 1.4 mM | kcat | 0.3 s⁻¹ |
| B9 (Tcur_2987 W263F/W376F) | Nc1c(S(=O)(=O)O)cc(Nc2cccc(S(=O)(=O)CCOS(=O)(=O)O)c2)c2c1C(=O)c1ccccc1C2=O | pH 3, sigmoidal kinetics, added: H2O2 1 mM | kcat | 69 ± 1 s⁻¹ |
